{"data": "Measured values from different studies", "note": "Parts stem from different laboratories: compare values within a part only."}
{"data": "Study 1", "target": "Interferon regulatory factor 5, full length, phosphomimetic (IRF5, Homo sapiens, UniProt Q13568-2, residues 1-514, K96S/S451D/S453D/S456D/S462D)", "technique": "protein-binding microarray", "molecule type": "double-stranded DNA, one strand shown", "sample": "in vitro", "tested at": "250 nM", "setting": "60-bp whole probe", "added": "salmon DNA 0.4 mg/ml", "relative to": "random background probes", "reading": "higher = stronger binding", "all sequences stand within": "GCCTAGCAC … GTCTTGATTCGCTTGACGCTGCTG"}
{"Oligonucleotide": "TTAGATCTCAGTCCCGATTAGTGCTAG", "log fluorescence [z-score]": -0.081}
{"Oligonucleotide": "TTTGATTCCAGTTTCGATTAGTGCTAG", "log fluorescence [z-score]": 9.58}
{"Oligonucleotide": "GACTAACTGGGGTTTCGAGACGTGCTA", "log fluorescence [z-score]": 1.22}
{"Oligonucleotide": "GATGATATCGGGTATCGAGACGTGCTA", "log fluorescence [z-score]": 3.14}
{"Oligonucleotide": "TCAGCTTTCCTTCATGCACTGTGCTAG", "log fluorescence [z-score]": 0.772}
{"Oligonucleotide": "TTAGATTTCAGGCTCGATTAGTGCTAG", "log fluorescence [z-score]": 0.503}
{"Oligonucleotide": "GACCGTCTCGGTTTCGGGACGTGCTAG", "log fluorescence [z-score]": 3.51}
{"Oligonucleotide": "TCAACTGTCTGTTTCCTACTGTGCTAG", "log fluorescence [z-score]": 0.698}
{"Oligonucleotide": "AGACATGACACCACTCCTGAGTGCTAG", "log fluorescence [z-score]": -0.378}
{"Oligonucleotide": "GACGATATCGGGATTCGAGACGTGCTA", "log fluorescence [z-score]": 1.25}
{"Oligonucleotide": "TTAGATCTCAGTCTCGATTTGTGCTAG", "log fluorescence [z-score]": 0.789}
{"Oligonucleotide": "TCACTTCTGGTGCTCATACTGTGCTAG", "log fluorescence [z-score]": 0.418}
{"Oligonucleotide": "GACGATATCGGGTTTCGAGATGTGCTA", "log fluorescence [z-score]": 4.08}
{"Oligonucleotide": "TAAGGTATCCTTCTCCTTTAGTGCTAG", "log fluorescence [z-score]": 0.407}
{"Oligonucleotide": "GAATGTCCTCCTCTCTCTTTGTGCTAG", "log fluorescence [z-score]": -0.061}
{"Oligonucleotide": "TCATGTCTGTGTCACAGAGAGTGCTAG", "log fluorescence [z-score]": 0.198}
{"Oligonucleotide": "GGCCAAACAGTATTAAACTCGTGCTAG", "log fluorescence [z-score]": -0.223}
{"Oligonucleotide": "TTAGAACTGAAACTGGATTAGTGCTAG", "log fluorescence [z-score]": 1.79}
{"Oligonucleotide": "ACAGATGAGGAACCAAGGCCGTGCTAG", "log fluorescence [z-score]": -0.246}
{"data": "Study 2", "target": "Fragile X messenger ribonucleoprotein 1, C-terminal low-complexity region (Fmr1, Mus musculus, UniProt P35922)", "technique": "RNA Bind-n-Seq", "molecule type": "RNA", "sample": "in vitro", "tested at": "200 nM", "setting": "whole 134-nt RNA, ends assumed", "added": "150 mM KCl", "relative to": "input library", "reading": "higher = stronger binding", "all sequences stand within": "GGGAGUUCUACAGUCCGACGAUC … UGGAAUUCUCGGGUGUCAAGG"}
{"Oligonucleotide": "CAAGUCCUGUGCUACACAUCGUAUGUACCGAAUCGGGGUUUGGGGUGGGGUGGGGAAAGUAUUAUGUUACGCCGUUCGGAUCUGCACUUC", "log2 enrichment": 1.28}
{"Oligonucleotide": "AAGUCCUGUGCUACACAUCGUAUGUACCGAAUCGGGAAAAAAAGGGAAAGGGAGGGAAAGUAUUAUGUUACGCCGUUCGGAUCUGCACUU", "log2 enrichment": 0.598}
{"Oligonucleotide": "UGCAGACGGGGAACCUGCUGAACUGGGGCCGCCUGCGGAAGAAGUGCCCGUCCACGCACAGCGAGGAGGUGAGCGUGGCGACACUCGCCG", "log2 enrichment": -2.09}
{"Oligonucleotide": "UGUGCUACACAUCGUAUGUACCGAAUCGGGCCCCCCCGGGGCCCCCCCGGGGCCCCCCCGGGAAAGUAUUAUGUUACGCCGUUCGGAUCU", "log2 enrichment": -1.53}
{"Oligonucleotide": "UCAUCCUUUUUAAAUUUUUUUUUUUUUUUUGAGACGGUCUCACUCUCACCCAGGCUGGAUUGCAGUGGUGUGAUCUCGACCAACUGCAAC", "log2 enrichment": -0.0218}
{"Oligonucleotide": "UGCUGUGUCACCGGGAACGCAAAGGCUGGGAAGAAGGCCCUUCUCAAAAUGGACUGGUGUUGCAGGGUGAGAAGCUGCCCCCUGACUUCA", "log2 enrichment": -0.368}
{"Oligonucleotide": "GCAGGAAGUAAAAACAAAUGGAAAUGCUUCGGAUAGUGGCAGGGGUGGGGGUUGCUAAGGAAAGGGUGGGAUGCGAGUGGGUAAAGAGUU", "log2 enrichment": 0.417}
{"Oligonucleotide": "GGGCCCUGGUGGCAUGCGGGGAGGAAGAGGUGGCCUCAUGGAUCGUGGUGGUCCCGGUGGAAUGUUCAGAGGUGGCCGUGGUGGAGACAG", "log2 enrichment": 0.266}
{"Oligonucleotide": "CCUCAAGUCCUGUGCUACACAUCGUAUGUACCGAAUCGGGUGGGAGGGUGGGAAAGUAUUAUGUUACGCCGUUCGGAUCUGCACUUCCAG", "log2 enrichment": 0.795}
{"Oligonucleotide": "UCCUGUGCUACACAUCGUAUGUACCGAAUCAAAUUUUUAAACCCCCCCAAAUUUUUAAAAAAGUAUUAUGUUACGCCGUUCGGAUCUGCA", "log2 enrichment": 0.506}
{"Oligonucleotide": "CUCAAGUCCUGUGCUACACAUCGUAUGUACCGAAUCGGGAGGGUUUGGGUGGGAAAGUAUUAUGUUACGCCGUUCGGAUCUGCACUUCCA", "log2 enrichment": 1.46}
{"Oligonucleotide": "UGGGAGGUGGAUUUUGUUUAUUUUUUAAGCUCAUUUCCAGGGGUGGGAAUUUUUUUUUAAUAUGUGUCAUGAAUAAAGUUGUUUUUGAAA", "log2 enrichment": 0.104}
{"Oligonucleotide": "GUGCUACACAUCGUAUGUACCGAAUCGGGGAAAAAAAGGGGAAAAAAAGGGGUUUUUUUGGGGAAAGUAUUAUGUUACGCCGUUCGGAUC", "log2 enrichment": 0.281}
{"Oligonucleotide": "CUCAAGUCCUGUGCUACACAUCGUAUGUACCGAAUCGGGAAGGGAAGGGAAGGGAAAGUAUUAUGUUACGCCGUUCGGAUCUGCACUUCC", "log2 enrichment": 0.957}
{"data": "Study 3", "target": "Histone acetyltransferase KAT6A, both winged helices, GST fusion (KAT6A, Homo sapiens, UniProt Q92794, residues 1-181)", "technique": "protein binding microarray", "molecule type": "double-stranded DNA, one strand shown", "sample": "in vitro", "tested at": "not given", "setting": "8-mer, flanks averaged, mean of 2 arrays, mostly near background", "relative to": "not given", "reading": "higher = stronger binding", "Target sequence (chain)": "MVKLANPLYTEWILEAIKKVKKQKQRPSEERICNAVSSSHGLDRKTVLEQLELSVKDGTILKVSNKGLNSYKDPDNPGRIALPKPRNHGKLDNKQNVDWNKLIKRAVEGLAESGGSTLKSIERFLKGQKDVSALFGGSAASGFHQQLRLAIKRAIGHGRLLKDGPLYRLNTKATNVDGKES"}
{"Oligonucleotide": "AACCTCTC", "E-score": -0.0456}
{"Oligonucleotide": "CCACACGG", "E-score": 0.174}
{"Oligonucleotide": "TCAGTACA", "E-score": -0.173}
{"Oligonucleotide": "CCCTCGCC", "E-score": -0.0932}
{"Oligonucleotide": "TCAGTTAA", "E-score": -0.141}
{"Oligonucleotide": "GTTGGCAA", "E-score": -0.157}
{"Oligonucleotide": "ACCTCTTA", "E-score": -0.00934}
{"Oligonucleotide": "CATAATAC", "E-score": -0.114}
{"Oligonucleotide": "TGACATAA", "E-score": -0.0518}
{"Oligonucleotide": "CCGGAACG", "E-score": 0.202}
{"Oligonucleotide": "ATTGCGTA", "E-score": 0.0673}
{"Oligonucleotide": "CCAGTCGC", "E-score": 0.00105}
{"Oligonucleotide": "CCGCGTTA", "E-score": 0.312}
{"Oligonucleotide": "GGCTGACA", "E-score": 0.0564}
{"Oligonucleotide": "CTTACCGA", "E-score": 0.0438}
{"Oligonucleotide": "AAATAATA", "E-score": -0.0524}
{"Oligonucleotide": "ATTGAATG", "E-score": -0.119}
{"Oligonucleotide": "GCCCATTA", "E-score": -0.0655}
{"Oligonucleotide": "AGTCTCAA", "E-score": -0.0989}
{"Oligonucleotide": "TGAGTTAA", "E-score": -0.034}
{"Oligonucleotide": "AGCCTAAC", "E-score": -0.0112}
{"Oligonucleotide": "AAGGTCCG", "E-score": 0.125}
{"Oligonucleotide": "GGATGTAA", "E-score": 0.0432}
{"Oligonucleotide": "CACCGGCA", "E-score": 0.223}
{"Oligonucleotide": "CTTAGAGC", "E-score": -0.0503}
{"data": "Study 4", "target": "RNA binding protein fox-1 homolog 2, RRM domain, GST-SBP tag (RBFOX2, Homo sapiens, UniProt O43251-10, residues 100-194)", "technique": "RNA Bind-n-Seq", "molecule type": "RNA", "sample": "in vitro", "tested at": "365 nM", "setting": "natural RNA segment, single round, ends assumed", "relative to": "no-protein control", "reading": "higher = stronger binding", "all sequences stand within": "GGGAGUUCUACAGUCCGACGAUC … UGGAAUUCUCGGGUGCCAA", "Residues (chain)": "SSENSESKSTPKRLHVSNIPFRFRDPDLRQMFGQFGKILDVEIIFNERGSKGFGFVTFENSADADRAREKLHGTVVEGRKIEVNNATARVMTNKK"}
{"Oligonucleotide": "GCCUACUGGGGGGUCCCCAAACUCAGUCCUGGUACCACCUCAACUGUGACAAUCAGCAAAGCCUCGCCUGGGCCCUCAUCUGGGAUGAUGGGGGGAACGGACAGAUAUUC", "RBNS enrichment (R)": 0.318}
{"Oligonucleotide": "GUUACAAGGUAAGCUAGGUUGCCCACUUGCCCACUCGUCCUCUCCCUGCUGCAGUCUCUUGGGUCUCACACGCACUGCAAAUGCUAAGCGAUGGCCAGCUGUCUCCCUCC", "RBNS enrichment (R)": 0.521}
{"Oligonucleotide": "CUCCCCUCUUUAAGAACACAUAGCUUAGGAUUGCCUUGGCGAUGUGGGCUCUUUUUUGGUUCCAUAUGAACUUAAGUAGUUUUUUCCAAUUCUGUGAAGAAAGUCAUUGG", "RBNS enrichment (R)": 0.312}
{"Oligonucleotide": "UACCUUACCAUUGUUAGGACAGCGUGAGUAGACCUGCUUGCUCUUCUCACUUUCCUCAUUGGCUUAUUAAUUAGCUCCUUACUUUGUUGCCUUUGCUUCAAAUGGUUUGA", "RBNS enrichment (R)": 5.74}
{"Oligonucleotide": "ACGCUGUGUGUAUGACUGUGUGACUGUGUGGGAGCCUGGACUGACAGAUAGGCCAAGGGCUACUCUCUGGCAUCUCCAGGUGUUUUGUAGCAAACAGCCACUUAGUGCUU", "RBNS enrichment (R)": 0.376}
{"Oligonucleotide": "UUAGAAACUGCUCAGCCACAGGGUCCCAGUGUCUGAGUCUGGAAGAGUCUUUAGAGAUUUGUUCACUCUCUGAGGGAUCCUCCUGGCUCUGCUUACAUACUUCCAGGGAC", "RBNS enrichment (R)": 0.308}
{"Oligonucleotide": "CAAAGAUCUGGAAUGGGGGCCACCUUUAUAUUUUAAUACUCAAGUCCUGUGCUCCUUUUGGCCACUUUAAAAAGUCUUCCCUCACCUUGGAUAAAUAGGAUUCAGAAAGC", "RBNS enrichment (R)": 0.379}
{"Oligonucleotide": "CAGGGUCUAAAGAGAACAAGAGGUGCUAGCUCUUACCAAAACAGAUGGUAGAGAGAGUUGCUGGCUAUUUAAAAAGCUCUUUCAUCUUUUAAUUCACCUCUUCUUUUCAC", "RBNS enrichment (R)": 0.462}
{"Oligonucleotide": "ACUACUUUACCCUACCUUCUCCCCUUUUAGAUGGGUUCUUCCUGAGUUUUGGAGUCUUGUAUGAUUAUCAGUAUUCCCCUGUCAAAAUCAAAUCUAUUCAGGUUUCUUCA", "RBNS enrichment (R)": 0.652}
{"Oligonucleotide": "UAGGACUUCAAAGUGUGUCUGGGAUUUUUUUAUUAAAGAAAAAAAAUUUCUAGCUGUCCUUGCAGAAUUAUAGUGAAUACCAAAAUGGGGUUUUGCCCCAGGAGGCUCCU", "RBNS enrichment (R)": 0.368}
{"Oligonucleotide": "CCCCAAACCCUCAUUUUGCAGAAACACUAGGUCUGUGGAGUAGGUUGUGAUUCUGGGGUCUCUUCAAUGACCCCGGUACCUCAUGAACCCCUGCUUAGCAUGGUUGUGCU", "RBNS enrichment (R)": 2.56}
{"Oligonucleotide": "AAGACUAUGUCCUAGUGGAGGGAGUAAUCCUAACACCCAGGCUGGCCGCCAGCUGGCACCUGCCUCUAUCCCAGACUGCCCUCGUCCCAGCUCUCUGUCCAACUGUUGAU", "RBNS enrichment (R)": 0.252}
{"note": "Repeated from above (study 3):"}
{"Oligonucleotide": "CCGGAACG", "E-score": 0.202}
{"Oligonucleotide": "ATTGCGTA", "E-score": 0.0673}
{"Oligonucleotide": "CCAGTCGC", "E-score": 0.00105}
{"Oligonucleotide": "CCGCGTTA", "E-score": 0.312}
{"Oligonucleotide": "GGCTGACA", "E-score": 0.0564}
{"Oligonucleotide": "CTTACCGA", "E-score": 0.0438}
